Published values gathered from unrelated publications.
Each line is one published result; not all experiments were run side by side. ± marks the error that the study gave.

`DASGKPVPY` — result for “frequency of responding donors”: 33% (AIM; peptide, CD8+ T cells from PBMC, human donors; reference: positive over tested donors).
For CC[C@H](C)[C@H](NC(=O)[C@H](CC(C)C)NC(=O)[C@H](Cc1c[nH]c2ccccc12)NC(=O)[C@H](CCC(N)=O)NC(=O)[C@@H](NC(=O)[C@H](Cc1ccccc1)NC(=O)[C@H](C)NC(=O)[C@H](CCCCNC(=O)COCCOCCNC(=O)COCCOCCNC(=O)CC[C@H](NC(=O)CCCCCCCCCCCCCCCCCCC(=O)O)C(=O)O)NC(=O)[C@H](CCC(N)=O)NC(=O)[C@H](C)NC(=O)[C@@H](NC(=O)[C@H](CCCCN)NC(=O)[C@H](CC(=O)O)NC(=O)[C@H](CC(C)C)NC(=O)C(C)(C)NC(=O)[C@@H](NC(=O)[C@H](CO)NC(=O)[C@H](Cc1ccc(O)cc1)NC(=O)[C@H](CC(=O)O)NC(=O)[C@H](CO)NC(=O)[C@@H](NC(=O)[C@H](Cc1ccccc1)NC(=O)[C@@H](NC(=O)CNC(=O)[C@H](CCC(=O)O)NC(=O)C(C)(C)NC(=O)[C@@H](N)Cc1ccc(O)cc1)[C@@H](C)O)[C@@H](C)O)[C@@H](C)CC)[C@@H](C)CC)C(C)C)C(=O)N[C@@H](C)C(=O)NCC(=O)NCC(=O)N1CCC[C@H]1C(=O)N[C@@H](CO)C(=O)N[C@@H](CO)C(=O)NCC(=O)N[C@@H](C)C(=O)N1CCC[C@H]1C(=O)N1CCC[C@H]1C(=O)N1CCC[C@H]1C(=O)N[C@@H](CO)C(N)=O, the serum AST was 28.1 ± 15.5 U/L (healthy subjects, single ascending dose; 8.0 mg, day 29).
The antigen-positive cells of Nc1ncnc2c([C@@H]3N[C@H](CO)[C@@H](O)[C@H]3O)c[nH]c12 is reported as 8.34% (Zaire ebolavirus; antibody staining; human macrophages; 50 µM).
With `TRSMWSFNPETNILL` the responding donors was 17% (human CD4 T cells; AIM; peptide).
Cc1ccc(-c2ccc(C)cn2)nc1 has an inhibition of -0.934% (Replicase polyprotein 1ab, main protease (rep, Severe acute respiratory syndrome coronavirus 2, UniProt P0DTD1); reporter gene (mKate2), inhibitor; 20 µM).

Some of these lines once more:
With `TRSMWSFNPETNILL` the responding donors was 17% (human CD4 T cells; AIM; peptide).
